Assay results gathered from unrelated publications.
A part holds a random share of what one study measured.
UniProt Q16288, sequence (whole entry, looked up): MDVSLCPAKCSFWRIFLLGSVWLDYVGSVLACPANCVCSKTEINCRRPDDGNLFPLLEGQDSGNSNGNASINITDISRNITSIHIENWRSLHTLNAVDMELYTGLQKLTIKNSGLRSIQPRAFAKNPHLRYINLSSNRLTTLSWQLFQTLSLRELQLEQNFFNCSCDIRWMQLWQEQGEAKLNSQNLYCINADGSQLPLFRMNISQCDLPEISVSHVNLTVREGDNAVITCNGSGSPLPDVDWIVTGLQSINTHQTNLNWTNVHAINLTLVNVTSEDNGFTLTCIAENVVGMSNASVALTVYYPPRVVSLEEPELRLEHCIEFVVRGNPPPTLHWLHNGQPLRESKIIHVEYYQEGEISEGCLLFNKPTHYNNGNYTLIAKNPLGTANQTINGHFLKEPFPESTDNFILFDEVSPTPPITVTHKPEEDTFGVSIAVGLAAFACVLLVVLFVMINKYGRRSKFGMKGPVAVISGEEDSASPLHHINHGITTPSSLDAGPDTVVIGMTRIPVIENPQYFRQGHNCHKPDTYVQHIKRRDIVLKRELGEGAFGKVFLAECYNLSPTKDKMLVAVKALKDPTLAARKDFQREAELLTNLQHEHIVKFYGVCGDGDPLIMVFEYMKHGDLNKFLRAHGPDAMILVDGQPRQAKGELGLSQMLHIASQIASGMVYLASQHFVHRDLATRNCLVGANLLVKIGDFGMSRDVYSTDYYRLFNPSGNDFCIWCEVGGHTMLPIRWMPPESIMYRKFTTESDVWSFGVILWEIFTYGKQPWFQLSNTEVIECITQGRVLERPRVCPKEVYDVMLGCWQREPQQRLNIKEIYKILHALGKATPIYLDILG

Series 1
Target: Histone acetyltransferase KAT6A, winged helix 1, GST fusion (KAT6A, Homo sapiens, UniProt Q92794, residues 1-85)
Technique: protein binding microarray
Molecule type: double-stranded DNA, one strand shown
Medium: in vitro
Tested at: not given
Notes: 8-mer, flanks averaged, mean of 2 arrays, mostly near background
Relative to: not given
Reading: higher = stronger binding
Endpoint: E-score
Residues (chain): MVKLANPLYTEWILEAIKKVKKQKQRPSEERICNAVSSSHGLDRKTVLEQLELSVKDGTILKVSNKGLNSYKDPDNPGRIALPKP
GCCGGCGC: 0.465
AAAGACTA: -0.0354
AAACGATT: -0.144
AGATTGCA: -0.0896
TCTTGTCA: -0.137
ATGAGCTC: -0.0703
TCTATCCA: -0.166
CGTCGTAG: 0.101

Series 2
Target: RING finger protein unkempt homolog, zinc fingers 1-6, GST-SBP tag (UNK, Homo sapiens, UniProt Q9C0B0, residues 30-357)
UniProt Q9C0B0, sequence (30-357, looked up): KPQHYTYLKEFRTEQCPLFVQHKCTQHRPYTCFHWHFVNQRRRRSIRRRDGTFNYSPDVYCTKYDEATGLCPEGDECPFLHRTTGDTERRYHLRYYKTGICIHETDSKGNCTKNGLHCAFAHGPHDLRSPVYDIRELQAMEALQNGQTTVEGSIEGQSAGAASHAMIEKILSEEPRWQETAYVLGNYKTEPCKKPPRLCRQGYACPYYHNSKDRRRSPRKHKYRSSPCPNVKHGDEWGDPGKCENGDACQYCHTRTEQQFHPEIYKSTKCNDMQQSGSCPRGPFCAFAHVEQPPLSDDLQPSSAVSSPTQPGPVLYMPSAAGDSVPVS
Technique: RNA Bind-n-Seq
Molecule type: RNA
Medium: in vitro
Tested at: not given
Notes: RNA with constant flanks, human-mouse chimeric sites, ends assumed
Relative to: input RNA pool
Reading: higher = stronger binding
Endpoint: bound/input enrichment
All sequences stand within: GGGAGUUCUACAGUCCGACGAUC … CAACAGAGGAUUGAGCAUCA
GGAAGUACAAUGAUGGAGAUUGAUGGUGAUAAAGGCAAGCAGGGCGGUCCCACCUACUACAUAGACACCAAUGCCCUCCGCGUGCCCAGGGAGAACAUGGAGGCCAUCUCACCACUCAAG: 0.219 ratio
GAGCCCAGCCGGCAGUUUGUAAAGGACUCCAUUCGGCUGGUUAAAAGAUGCACUAAACCCGACAGAAAAGAAUUCCAGAAGAUUGCCAUGGCUACAGCUAUAGGAUUUGCUAUCAUGGGA: 0.19 ratio
UUGGAAGGACCAGAGCCCAGUCAGCUCAAACCAUUAGUUAUACAGGCUAUGCCCACCCUAAUAGAACUAAUGAAAGACCCCAGUGUAGUUGUUCGAGACACAACAGCGUGGACUGUGGGC: 0.443 ratio
GUCAACAGCUGCCUCAACCCCAUCCUCUACGCCUUCCUGGAUGAGAACUUCAAGGCCUGCUUUAGAAAGUUCUGCUGUGCAUCUGCCCUGCGCCGGGACGUGCAGGUUUCUGAUCGUGUG: 0.316 ratio
UUAAUCCCCUUUACUGCUCCCCCACUUCUCAUGGUAAUGACAAAAACUUAUAUCCCCGUCCUAGCUUUCACUCAGAUGGCUUAUGGAGCCGGUUUCCUAGCUUUCUUGGGUGGGAUCAGA: 0.277 ratio
UAAGUCCUGUGCCAGCACUUCGCUCAUAAAGUUUUAAAUUCUGGACCAAUAGUGUUUGUUUCCUGAUUAUUGUAUCCAAUACUUUGCCUAGUAUGUAACUCAUGCUUCUGGAUAAAUAAA: 1.49 ratio
GUGUCCUGCUUUCAACUUAAAUCACUGAGGCAUCUCUACUGUUCUGUUAAAAUCAGGAUUUUAGUGCUGUGUCACCACAUGAGAGUUCAGAAGCAGCCUUUCUGUGGAGGGUGGGAAUGA: 0.158 ratio
AGAGAAAUGAGAAAGAAUCUUACACAAGAAGAGAUGCAAAGAAUGUCUACUAGAGUCCUUUUGGCGACUCUUUCCAUCCCUAUUACUCCUGAGCGAACUGAUAUUGCUCGACUUUUGGAU: 0.124 ratio

Series 3
Target: Protein C-ets-1 (ETS1, Homo sapiens, UniProt P14921, residues 1-441, K379A, full length assumed)
Technique: protein-binding microarray
Molecule type: double-stranded DNA, one strand shown
Medium: in vitro
Tested at: not given
Notes: k-mer, scored over probes, only values ≥0.25
Reading: higher = stronger binding
Endpoint: E-score
Construct (chain): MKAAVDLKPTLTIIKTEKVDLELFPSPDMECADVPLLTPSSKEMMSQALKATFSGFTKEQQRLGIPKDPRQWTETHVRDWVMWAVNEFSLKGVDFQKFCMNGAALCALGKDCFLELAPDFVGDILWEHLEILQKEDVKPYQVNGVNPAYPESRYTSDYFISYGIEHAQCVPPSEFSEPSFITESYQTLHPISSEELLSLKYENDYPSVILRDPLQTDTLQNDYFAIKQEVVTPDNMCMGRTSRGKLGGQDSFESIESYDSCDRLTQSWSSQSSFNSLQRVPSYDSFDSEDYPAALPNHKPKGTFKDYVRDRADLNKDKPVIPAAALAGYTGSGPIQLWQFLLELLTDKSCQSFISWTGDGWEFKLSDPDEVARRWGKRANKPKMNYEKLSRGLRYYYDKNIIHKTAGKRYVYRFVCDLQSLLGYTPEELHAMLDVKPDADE
GACCGACA: 0.452
ACCGGTGC: 0.456
GGTGTATA: 0.263
CTTCAATA: 0.34
ACAACCGG: 0.349
CATTAAAC: 0.267
ACCCGCCC: 0.387
GACACAAA: 0.294

Other studies, line by line
Cc1cncc2cccc(S(=O)(=O)N3CCCN(C(=O)CN)C[C@@H]3C)c12 — remaining activity (NT-3 growth factor receptor (NTRK3, Homo sapiens, UniProt Q16288); enzyme activity, inhibitor; 0.5 µM; relative to: control): 87.5%

Repeated from above (series 2):
UUAAUCCCCUUUACUGCUCCCCCACUUCUCAUGGUAAUGACAAAAACUUAUAUCCCCGUCCUAGCUUUCACUCAGAUGGCUUAUGGAGCCGGUUUCCUAGCUUUCUUGGGUGGGAUCAGA: 0.277 ratio
UAAGUCCUGUGCCAGCACUUCGCUCAUAAAGUUUUAAAUUCUGGACCAAUAGUGUUUGUUUCCUGAUUAUUGUAUCCAAUACUUUGCCUAGUAUGUAACUCAUGCUUCUGGAUAAAUAAA: 1.49 ratio
GUGUCCUGCUUUCAACUUAAAUCACUGAGGCAUCUCUACUGUUCUGUUAAAAUCAGGAUUUUAGUGCUGUGUCACCACAUGAGAGUUCAGAAGCAGCCUUUCUGUGGAGGGUGGGAAUGA: 0.158 ratio
